Results gathered from unrelated publications.
Compare with care: the assays were run in different laboratories. ± gives the spread as reported.

Under “blood TBA change”, `CCc1cc(C(=O)NC)c2nccc(N3CCc4c(cc(Cn5ccnc5)cc4-c4cn(C)nc4C(F)(F)F)C3=O)c2c1` is recorded as 164% (Sprague Dawley rats; oral, 100 mg/kg twice daily, 7 days; relative to: vehicle).
`COc1ccc([C@@H](O)c2cc(-c3ncnc4cc(N5CCOCC5)ccc34)c(F)cc2Cl)nn1`: “anaemia TEAE incidence” 67% (locally advanced rectal cancer patients; 250 mg, with: capecitabine and radiotherapy).
With `Cc1cc(OCCOCCC(F)(F)P(=O)(O)O)ccc1CCc1cnc2c(N)nc3cc(CCC(=O)O)ccc3c2c1` the AUC(tau) was 25.8 ng·h/mL (human, serum; intratumoral, 200 µg every 2 weeks, cycle 1 day 1).
Under “TEAEs leading to discontinuation”, `COc1cc2nccc(Oc3ccc(NC(=O)c4cc5c(n(-c6ccccc6)c4=O)CCCC5=O)nc3)c2cc1OC` is recorded as 10% (patients with relapsed/refractory AML; oral, 3 mg once daily).
For `NC1(C(=O)N[C@@H](CCO)c2ccc(Cl)cc2)CCN(c2nc[nH]c3nccc2-3)CC1`, “incidence of Dysgeusia” read 0% (metastatic CRPC patients; dose not given, grade 3 to 4, treatment-related, all doses, with: enzalutamide 160 mg daily).
`COc1ccc2[nH]c([S@+]([O-])Cc3ncc(CO)c(OC)c3C)nc2c1` gave an AUC(0-8 h) of 0.19 µM·h (human, dried plasma spots; 5 mg racemic omeprazole; relative to: baseline).
`Cc1cc(-c2nnc(N)nc2-c2ccc(F)cc2)cc(Cl)n1` — result for “incidence of AE, immune-mediated, treatment-related”: 0% (item: obliterative bronchiolitis, grade ≥ 3; male IO-naive mCRPC patients; oral, dose not given).
For `Cc1cc(Nc2cc3ncccc3c(N[C@@H]3C[C@H]4CC[C@@H](C3)N4CCC#N)n2)n[nH]1`, “subjects with epistaxis” read 17% (healthy human; oral, 30 mg multiple doses, 14 days).
The KOC of `C=C(NC(=O)c1nccc(OC)c1O)C(=O)O[C@@H](C)[C@H](OC(=O)C(C)C)[C@@H](Cc1ccccc1)C(=O)O` is reported as 594 mL/g (FOCUS PEARL groundwater modelling; soil; geometric mean input).
Under “incidence of back pain”, `CCO[C@H]1CCN(Cc2c(OC)cc(C)c3[nH]ccc23)[C@H](c2ccc(C(=O)O)cc2)C1` is recorded as 0% (PNH patients, active haemolysis; oral, 50 mg, 4 weeks, treatment).
`COc1ncc(-c2nc3c(n2C(C)C)[C@H](c2ccc(Cl)cc2)N(c2cc(Cl)cn(C)c2=O)C3=O)c(OC)n1` gave a Cmax of 467 ng/mL (LC-MS/MS; human, plasma; oral, 50 mg, cycle 1 day 1, high-dose arm).
For `CC/C(=C(\c1ccccc1)c1ccc(OCCN(C)C)cc1)c1ccccc1`, the heart rate was 239 ± 0.8 beats/min (male Hartley guinea pigs, anaesthetized; intravenous, 30 mg/kg group, baseline before infusion).
For `CN(C(=O)n1cnc(-c2cccnc2)c1)C1CCCCC1`, the tissue concentration was 61.8 ± 12.1 ng/g (Wistar rat, medulla oblongata; oral, 10 mg/kg, 1 h, single dose).
For `Cc1ccc([C@@H]2O[C@H](CO)[C@@H](O)[C@H](O)[C@H]2O)cc1Cc1ccc(-c2ccc(F)cc2)s1`, “urinary phosphate excretion change” read 140 mg (item: inorganic phosphorus; Japanese type 2 diabetes patients; 400 mg, day 6, 24 h urine collection; relative to: baseline).
For `[Cl][89Zr]([Cl])([Cl])[Cl]`, the EDTA-reactive species was ≥ 99.9% (radio-TLC; ammonium acetate; concentration not given, 0 h after production, pH 7.0, ambient).
With `C=CC(=O)Nc1cc(Nc2nccc(-c3cn(C)c4ccccc34)n2)c(OC)cc1N(C)CCN(C)C` the recovery was 90.3% (storage stability; human plasma; 5 h, on ice, high QC level).
With `Cc1cc(/C=C/C#N)cc(C)c1Nc1ccnc(Nc2ccc(C#N)cc2)n1` the dissolved amount was ~36% (USP II dissolution; HCl with polysorbate; 60 min, pH 2.0, 37 °C, 12.5 mg capsule, 100 rpm).
For `CNC(=O)c1ccc(-c2cnc3ncc(Cc4ccc5ncccc5c4)n3n2)cc1F`, “AST increased dose reduction/interruption” read 2% (Japanese patients; oral, 400 mg, any grade).
`CCOc1c([C@H](C)n2nc(C)c3c(N)ncnc32)cc(Cl)c(F)c1[C@@H]1CNC(=O)C1` has an AUC(0-tau) of 27.8 µM·h (human, DLBCL, plasma; oral, 30 mg, day 15, geometric mean).
`O=C(Nc1nc2cccc(-c3ccc(CN4CCS(=O)(=O)CC4)cc3)n2n1)C1CC1`: “treatment-emergent adverse events” 0% (item: chills; human rheumatoid arthritis patients; oral, 30 mg once daily, 4 weeks, regardless of relatedness).
For `CNC(=O)c1cc(Oc2ccc(NC(=O)Nc3cc(C(C)(C)C)nn3-c3ccc4ncccc4c3)c(F)c2)ccn1`, “patients with grade 3 musculoskeletal disorders” read 6% (patients; oral, dose not given, cycles 1 and 2, Low Cmax subgroup).
Under “subjects with TEAE Anemia”, `O=C(O)CCC(=O)O.[2H]C([2H])([2H])Oc1cc(C)c2[nH]ccc2c1CN1CC[C@@H](C2CC2)C[C@H]1c1ccc(C(=O)O)cc1` is recorded as 0% (multiple ascending dose; healthy Chinese subjects; 50 mg twice daily).
`[18F]c1ccc(-c2ccc3c(c2)[nH]c2ccncc23)cn1` gave an uptake of 2.73 ± 1.39 SUV (ex vivo biodistribution; normal B6SJL mice, gut; intravenous, 30 min).
For `N#Cc1ccc2c(c1)[C@H]1CCCN(C(=O)c3ccc4[nH]cnc4c3)[C@H]1C2`, “mean ACTH level” read 5.9 pmol/L (human; 40 mg, end of trial).
`Cc1cc(-c2nccc3c2ccn3CC(=O)Nc2ccc(-c3cnccn3)cn2)ccn1` — result for “respiratory thoracic mediastinal TEAEs”: 0% (healthy human volunteers; oral, 20 mg once daily, 14 days, multiple ascending dose).
For `CN(CCC(=O)O)C(=O)c1ccc2c(c1)CC[C@@H]1[C@@H]2CC[C@]2(C)C(c3cncc(F)c3)=CC[C@@H]12`, the indirect bilirubin was 0.62 mg/dL (premenopausal women with endometriosis pain, serum; 60 mg twice daily, end of treatment, completers, mean).
For `O=C(c1cc(Cc2n[nH]c(=O)c3ccccc23)ccc1F)N1CCN(C(=O)C2CC2)CC1`, the AUC(last) change was 25% (human; oral, dose not given, with: carboplatin).
Under “peripheral edema incidence (all grades)”, `CNC(=O)c1ccc(-c2cnc3ncc(Cc4ccc5ncccc5c4)n3n2)cc1F` is recorded as 39% (CTCAE v4.0, any causality; human cancer patients; oral, 600 mg twice daily, expansion cohort at RP2D).
`CCCCC1=NC2(CCCC2)C(=O)N1Cc1ccc(-c2ccccc2S(=O)(=O)Nc2noc(C)c2C)c(COCC)c1` has an AUC(0-inf) of 46700 ng·h/mL (healthy adult volunteers, plasma; oral, 200 mg, 14 days repeated dosing, fasted, crushed tablet).
For `Cn1cc(Nc2nccc(-c3ccc4c(c3)CN(C3COC3)CC[C@H]4NC(=O)c3cn(C(C)(C)C)nn3)n2)cn1`, “non-switched memory B cell change” read 52.2% (human, whole blood; 50 mg twice daily, day 7; relative to: pre-dose baseline).
`Cc1nc2ccc(OCc3ccc(C(F)(F)F)cc3)cc2[nH]1` — result for “terminal elimination rate constant”: 2.78e-05 ± 2.78e-05 s⁻¹ (Balb/c mice, male, plasma; oral, 10 mg/kg).
`CS(=O)(=O)c1ccc([C@@H](O)[C@@H](CF)NC(=O)C(Cl)Cl)cc1` gave an MRT(0-inf) of 3.35 ± 0.48 h (chicken (Arbor Acres), plasma; oral, 20 mg/kg, with: saline pretreatment).
`NC(N)=NCCC[C@@H](N)C(=O)N[C@@H](CCCN=C(N)N)C(=O)N1CCC[C@H]1C(=O)N1C[C@H](O)C[C@H]1C(=O)NCC(=O)N[C@@H](Cc1cccs1)C(=O)N[C@@H](CO)C(=O)N1Cc2ccccc2C[C@@H]1C(=O)N1[C@H](C(=O)N[C@@H](CCCN=C(N)N)C(=O)O)C[C@@H]2CCCC[C@@H]21` — result for “peripheral clearance (Q/F)”: 0.408 L/h (popPK full model bootstrap median; human; subcutaneous).
With `O=C(NCc1ccc(CN2CCOCC2)cc1)c1csc2nc[nH]c(=O)c12` the EC50 was > 100 µM (haemolysis; human red blood cells; 1 h, 37 °C).
Under CSF concentration, `O=C(O)/C=C/c1ccccc1` is recorded as “not detected” (human CSF; concentration not given, mean).
`CNc1ccc(-c2nc3ccc(O)cc3s2)cc1` [carbon-11 labelled] gave an SUV of 0.516 ± 0.296 (ex vivo biodistribution; APP/PS1 mouse, AD model, blood; intravenous, 30 min).
For `OC[C@H]1O[C@@H](c2ccc(F)c(Cc3cc4ccccc4s3)c2)[C@H](O)[C@@H](O)[C@@H]1O`, “hypoglycaemia-related adverse event” read 4% (Japanese patients, type 1 diabetes; oral, 100 mg/day, onset day 11; relative to: patients).
The heart rate of `O=C(CCCN1CCC(O)(c2ccc(Cl)cc2)CC1)c1ccc(F)cc1` is reported as 193 ± 0.6 beats/min (male Hartley guinea pigs, anaesthetized; intravenous, 1 mg/kg over 10 min, after infusion).
With `CCN1/C(=C/C(C)=O)Sc2ccc(F)cc21` the PR interval was 92 ± 3 ms (cynomolgus monkey; oral, 10 mg/kg, 6 h).
`CO[C@H]1/C=C/O[C@@]2(C)Oc3c(C)c(O)c4c(O)c(c(/C=N/N5CCN(C)CC5)c(O)c4c3C2=O)NC(=O)/C(C)=C\C=C\[C@H](C)[C@H](O)[C@@H](C)[C@@H](O)[C@@H](C)[C@H](OC(C)=O)[C@@H]1C`: “incidence of device site dermatitis” 6% (healthy human volunteers; oral, 600 mg, itraconazole cohort, with: gepotidacin 1500 mg).
For `CCCOc1ccc(NC(=O)CN2CCN(C)CC2)cc1-c1nc(CC)c(CC)c(=O)[nH]1`, “nasal obstruction incidence” read 20% (healthy Chinese men; 10 mg, with: placebo alcohol).
`Cc1noc(C)c1-c1cc(C(O)(c2ccccn2)c2ccccn2)c2nc(C3CC3)[nH]c2c1` has an AUC(0-tau) of 1840 ng·h/mL (human patients, plasma; oral, 1.4 mg, cycle 1 day 8, monotherapy).
Under CSF concentration, `O=c1oc2cc(O)ccc2c2ccccc12` is recorded as “not detected” (human CSF; concentration not given, mean).
`CNCc1ccc(-c2[nH]c3cc(F)cc4c3c2CCNC4=O)cc1` has an anaemia incidence of 33.3% (patients; oral, 840 mg twice daily, all grades).
With `O=C(N[C@H](Cc1c[nH]c2ccccc12)C(=O)Nc1ccncc1)c1ccc(-c2ccc(F)c(Cl)c2)cc1F` the concentration was 1680 nM (Swiss Webster mouse, female, plasma; oral, 50 mg/kg, 8 h, 20% HPβCD vehicle).
The organ weight of `CC(C)C[C@H](NC(=O)[C@H](Cc1ccccc1)NC(=O)c1cnccn1)B(O)O` is reported as 112 mg (mouse xenograft, heart; dose not given).
`CC(C)(C(=O)N1CCOc2c(C#N)cncc2C1)C(F)F` — result for “subjects with TEAE”: 12.5% (item: tandem gait test abnormal; human, both sexes; oral, 20 mg twice daily, 14 days, multiple ascending dose).
`COc1ccc2[nH]c([S+]([O-])Cc3ncc(C)c(OC)c3C)nc2c1` (centres unmarked) gave a Cmax of 884 ± 575 ng/mL (LC-MS/MS; healthy Chinese, CYP2C19*3 AA, plasma; oral, 20 mg).
`FC(F)(F)c1ccc(CNc2ccc(Cc3c[nH]c4ncc(Cl)cc34)cn2)cn1`: “treatment-related adverse events” 17% (item: Diarrhea; patients with advanced solid tumours, non-TGCT cohort; oral, 1000 mg/day, any grade).
`C[C@@H](Nc1cc(F)cc(F)c1)c1cc(C(=O)N(C)C)cc2c(=O)cc(N3CCOCC3)oc12` — result for “treatment-related serious adverse events”: 0% (item: macular rash; patients with advanced solid tumours; oral, dose not given, dose expansion phase I).
`CC1(C)S[C@@H]2[C@H](NC(=O)[C@H](N)c3ccc(O)cc3)C(=O)N2[C@H]1C(=O)O` gave a heart rate of 196 ± 0.3 beats/min (male Hartley guinea pigs, anaesthetized; intravenous, 20 mg/kg over 10 min, after infusion).
`O=C(COc1ccc(Cl)cc1)NC12CC(c3nnc([C@H]4C[C@@H](OC(F)(F)F)C4)o3)(C1)C2` — result for “adverse event incidence”: 11.1% (item: Presyncope; human; 200 mg once daily, 28 (unit not given)).
`CC(C)n1c(Nc2cccnc2)nc2cnc(Nc3ccc(N4CCN(C)CC4)cc3)nc21` — result for “subjects with TEAE”: 2.4% (item: haemoglobin increased; healthy human, male; oral, dose not given, CTCAE grade 1-3).
`CSc1cc(C)nc(SC)c1NC(=O)CN1CCN(CCSc2nc3ccccc3[nH]2)CC1` gave a concentration of 2.3 ng/g (mouse Crl:CD1 (ICR), female, cerebrum; intranasal, 50 µL of 3.24 mg/mL solution, daily for 7 days, 120 min, 0.01 N HCl solution vehicle).
`O=c1c(O)c(-c2cc(O)c(O)c(O)c2)oc2cc(O)cc(O)c12`: CSF concentration “not detected” (human CSF; concentration not given, mean).
`CC[C@H](C)[C@H](NC(=O)[C@H](Cc1ccccc1)NC(=O)[C@H](CCC(=O)O)NC(=O)[C@H](CCCCNC(=O)COCCOCCNC(=O)COCCOCCNC(=O)CC[C@H](NC(=O)CCCCCCCCCCCCCCCCC(=O)O)C(=O)O)NC(=O)[C@H](C)NC(=O)[C@H](C)NC(=O)[C@H](CCC(N)=O)NC(=O)CNC(=O)[C@H](CCC(=O)O)NC(=O)[C@H](CC(C)C)NC(=O)[C@H](Cc1ccc(O)cc1)NC(=O)[C@H](CO)NC(=O)[C@H](CO)NC(=O)[C@@H](NC(=O)[C@H](CC(=O)O)NC(=O)[C@H](CO)NC(=O)[C@@H](NC(=O)[C@H](Cc1ccccc1)NC(=O)[C@@H](NC(=O)CNC(=O)[C@H](CCC(=O)O)NC(=O)C(C)(C)NC(=O)[C@@H](N)Cc1cnc[nH]1)[C@@H](C)O)[C@@H](C)O)C(C)C)C(=O)N[C@@H](C)C(=O)N[C@@H](Cc1c[nH]c2ccccc12)C(=O)N[C@@H](CC(C)C)C(=O)N[C@H](C(=O)N[C@@H](CCCNC(=N)N)C(=O)NCC(=O)N[C@@H](CCCNC(=N)N)C(=O)NCC(=O)O)C(C)C` — result for “QT change from baseline”: -21.5 ms (12-lead Holter ECG; healthy humans; subcutaneous, 1.5 mg once weekly, 27 h, steady state; relative to: placebo).

Repeated from above:
Under CSF concentration, `O=C(O)/C=C/c1ccccc1` is recorded as “not detected” (human CSF; concentration not given, mean).
`CNc1ccc(-c2nc3ccc(O)cc3s2)cc1` [carbon-11 labelled] gave an SUV of 0.516 ± 0.296 (ex vivo biodistribution; APP/PS1 mouse, AD model, blood; intravenous, 30 min).
For `OC[C@H]1O[C@@H](c2ccc(F)c(Cc3cc4ccccc4s3)c2)[C@H](O)[C@@H](O)[C@@H]1O`, “hypoglycaemia-related adverse event” read 4% (Japanese patients, type 1 diabetes; oral, 100 mg/day, onset day 11; relative to: patients).
